Experimental data gathered from unrelated publications.
Each line is one published result; not all experiments were run side by side.
Technique: steady-state kinetics
B1: FMO3 N61S (Homo sapiens, UniProt P31513); chain GKKVAIIGAGVSGLASIRSCLEEGLEPTCFEKSNDIGGLWKFSDHAEEGRASIYKSVFSSSSKEMMCFPDFPFPDDFPNFMHNSKIQEYIIAFAKEKNLLKYIQFKTFVSSVNKHPDFATTGQWDVTTERDGKKESAVFDAVMVCSGHHVYPNLPKESFPGLNHFKGKCFHSRDYKEPGVFNGKRVLVVGLGNSGCDIATELSRTAEQVMISSRSGSWVMSRVWDNGYPWDMLLVTRFGTFLKNNLPTAISDWLYVKQMNARFKHENYGLMPLNGVLRKEPVFNDELPASILCGIVSVKPNVKEFTETSAIFEDGTIFEGIDCVIFATGYSFAYPFLDESIIKSRNNEIILFKGVFPPLLEKSTIAVIGFVQSLGAAIPTVDLQSRWAAQVIKGTCTLPSMEDMMNDINEKMEKKRKWFGKSETIQTDYIVYMDELSSFIGAKPNIPWLFLTDPKLAMEVYFGPCSPYQFRLVGPGQWPGARNAILTQWDRSLKPMQTRVVGRLQKPCFFFHWLKLFAIPILLIAVFLVLT
B2: cyc1 F95M (Streptomyces coelicolor, UniProt Q9K499); chain MHAFPHGTTATPTAIAVPPSLRLPVIEAAFPRQLHPYWPKLQETTRTWLLEKRLMPADKVEEYADGLCYTDLMAGYYLGAPDEVLQAIADYSAWMFVWDDRHDRDIVHGRAGAWRRLRGLLHTALDSPGDHLHHEDTLVAGFADSVRRLYAFLPATWNARFARHFHTVIEAYDREFHNRTRGIVPGVEEYLELRRLTFAHWIWTDLLEPSSGCELPDAVRKHPAYRRAALLSQEFAAWYNDLCSLPKEIAGDEVHNLGISLITHHSLTLEEAIGEVRRRVEECITEFLAVERDALRFADELADGTVRGKELSGAVRANVGNMRNWFSSVYWFHHESGRYMVDSWDDRSTPPYVNNEAAGEK
B3: At3g26430 (Arabidopsis thaliana, UniProt Q9LIN2); chain SPSCNFPAIFNFGDSNSDTGGLSASFGQAPYPNGQTFFHSPSGRFSDGRLIIDFIAEELGLPYLNAFLDSIGSNFSHGANFATAGSTVRPPNATIAQSGVSPISLDVQLVQFSDFITRSQLIRNRGGVFKKLLPKKEYFSQALYTFDIGQNDLTAGLKLNMTSDQIKAYIPDVHDQLSNVIRKVYSKGGRRFWIHNTAPLGCLPYVLDRFPVPASQIDNHGCAIPRNEIARYYNSELKRRVIELRKELSEAAFTYVDIYSIKLTLITQAKKLGFRYPLVACCGHGGKYNFNKLIKCGAKVMIKGKEIVLAKSCNDVSFRVSWDGIHFTETTNSWIFQQINDGAFSDPPLPVKSACTR
B4: Mgst1 unactivated (Rattus norvegicus, UniProt P08011); chain ADLKQLMDNEVLMAFTSYATIILAKMMFLSSATAFQRLTNKVFANPEDCAGFGKGENAKKFLRTDEKVERVRRAHLNDLENIVPFLGIGLLYSLSGPDLSTALIHFRIFVGARIYHTIAYLTPLPQPNRGLAFFVGYGVTLSMAYRLLRSRLYL
B5: PRODH2 157-515 (Homo sapiens, UniProt Q9UF12); chain YGQFVAGETAEEVKGCVQQLRTLSLRPLLAVPTEEEPDSAAKSGEAWYEGNLGAMLRCVDLSRGLLEPPSLAEASLMQLKVTALTSTRLCKELASWVRRPGASLELSPERLAEAMDSGQNLQVSCLNAEQNQHLRASLSRLHRVAQYARAQHVRLLVDAEYTSLNPALSLLVAALAVRWNSPGEGGPWVWNTYQACLKDTFERLGRDAEAAHRAGLAFGVKLVRGAYLDKERAVAQLHGMEDPTQPDYEATSQSYSRCLELMLTHVARHGPMCHLMVASHNEESVRQATKRMWELGIPLDGTVCFGQLLGMCDHVSLALGQAGYVVYKSIPYGSLEEVIPYLIRRAQENRSVLQGARRE
B6: enzyme (Rattus norvegicus, UniProt P06757); chain STAGKVIKCKAAVLWEPHKPFTIEDIEVAPPKAHEVRIKMVATGVCRSDDHAVSGSLFTPLPAVLGHEGAGIVESIGEGVTCVKPGDKVIPLFSPQCGKCRICKHPESNLCCQTKNLTQPKGALLDGTSRFSCRGKPIHHFISTSTFSQYTVVDDIAVAKIDAAAPLDKVCLIGCGFSTGYGSAVQVAKVTPGSTCAVFGLGGVGLSVVIGCKTAGAAKIIAVDINKDKFAKAKELGATDCINPQDYTKPIQEVLQEMTDGGVDFSFEVIGRLDTMTSALLSCHSACGVSVIVGVPPSAQSLSVNPMSLLLGRTWKGAIFGGFKSKDAVPKLVADFMAKKFPLEPLITHVLPFEKINEAFDLLRAGKSIRTVLTF
B7: ASRGL1 (Homo sapiens, UniProt Q7L266); chain 1 MNPIVVVHGGGAGPISKDRKERVHQGMVRAATVGYGILREGGSAVDAVEGAVVALEDDPEFNAGCGSVLNTNGEVEMDASIMDGKDLSAGAVSAVQCIANPIKLARLVMEKTPHCFLTDQGAAQFAAAMGVPEIPGEKLVTERNKKRLEKEKHEKGAQKTDCQKNLG; chain 2 TVGAVALDCKGNVAYATSTGGIVNKMVGRVGDSPCLGAGGYADNDIGAVSTTGHGESILKVNLARLTLFHIEQGKTVEEAADLSLGYMKSRVKGLGGLIVVSKTGDWVAKWTSTSMPWAAAKDGKLHFGIDPDDTTITDLP
B8: WlbA (Thermus thermophilus, UniProt Q72KX8); chain MTRFALTGLAGYIAPRHLKAIKEVGGVLVASLDPATNVGLVDSFFPEAEFFTEPEAFEAYLEDLRDRGEGVDYLSIASPNHLHYPQIRMALRLGANALSEKPLVLWPEEIARLKELEARTGRRVYTVLQLRVHPSLLALKERLGQEKGAKDVVLTYVTGRGKWYGKSWKVDEAKSGGLATNIGIHFFDLLAWLFGRALHVEVHARTPTVNAGYLELEGARVRWFLSIDPSFVPEPLRRQGKRTYRSIAVDGEEVEFSEGFTDLHTEVYRKTLAGEGFGLDEAAEAIRVAALLRTLPLSQPSPENRHPFLG
B9: MsrP (Escherichia coli, UniProt P76342); chain DLLSWFKGNDRPPAPAGKALEFSKPAAWQNNLPLTPADKVSGYNNFYEFGLDKADPAANAGSLKTDPWTLKISGEVAKPLTLDHDDLTRRFPLEERIYRMRCVEAWSMVVPWIGFPLHKLLALAEPTSNAKYVAFETIYAPEQMPGQQDRFIGGGLKYPYVEGLRLDEAMHPLTLMTVGVYGKALPPQNGAPVRLIVPWKYGFKGIKSIVSIKLTRERPPTTWNLAAPDEYGFYANVNPYVDHPRWSQATERFIGSGGILDVQRQPTLLFNGYAAQVASLYRGLDLRENF
B10: GTPBP3 E459K (Homo sapiens, UniProt Q969Y2); chain TRRSSGAPAPGSGATIFALSSGQGRCGIAVIRTSGPASGHALRILTAPRDLPLARHASLRLLSDPRSGEPLDRALVLWFPGPQSFTGEDCVEFHVHGGPAVVSGVLQALGSVPGLRPAEAGEFTRRAFANGKLNLTEVEGLADLIHAETEAQRRQALRQLDGELGHLCRGWAETLTKALAHVEAYIDFGEDDNLEEGVLEQADIEVRALQVALGAHLRDARRGQRLRSGVHVVVTGPPNAGKSSLVNLLSRKPVSIVSPEPGTTRDVLETPVDLAGFPVLLSDTAGLREGVGPVEQEGVRRARERLEQADLILAMLDASDLASPSSCNFLATVVASVGAQSPSDSSQRLLLVLNKSDLLSPEGPGPGPDLPPHLLLSCLTGEGLDGLLEALRKELAAVCGDPSTDPPLLTRARHQHHLQGCLDALGHYKQSKDLALAAKALRVARGHLTRLTGGGGTEEILDIIFQDFCVGK
B11: YME1 (Saccharomyces cerevisiae, UniProt P32795); chain ADKSVDVAKTNVKFDDVCGCDEARAELEEIVDFLKDPTKYESLGGKLPKGVLLTGPPGTGKTLLARATAGEAGVDFFFMSGSEFDEVYVGVGAKRIRDLFAQARSRAPAIIFIDELDAIGGKRNPKDQAYAKQTLNQLLVELDGFSQTSGIIIIGATNFPEALDKALTRPGRFDKVVNVDLPDVRGRADILKHHMKKITLADNVDPTIIARGTPGLSGAELANLVNQAAVYACQKNAVSVDMSHFEWAKDKILMGAERKTMVLTDAARKATAFHEAGHAIMAKYTNGATPLYKATILPRGRALGITFQLPEMDKVDITKRECQARLDVCMGGKIAEELIYGKDNTTSGCGSDLQSATGTARAMVTQYGMSDDVGPVNLSENWESWSNKIRDIADNEVIELLKDSEERARRLLTKKNVELHRLAQGLIEYETLDAHEIEQVCKGEKLDKLKTSTNTVVEGPDSDERKDIGDDKPKIPTMLNA
B12: YeiR (Escherichia coli, UniProt P33030); chain MTRTNLITGFLGSGKTTSILHLLAHKDPNEKWAVLVNEFGEVGIDGALLADSGALLKEIPGGCMCCVNGLPMQVGLNTLLRQGKPDRLLIEPTGLGHPKQILDLLTAPVYEPWIDLRATLCILDPRLLLDEKSASNENFRDQLAAADIIVANKSDRTTPESEQALQRWWQQNGGDRQLIHSEHGKVDGHLLDLPRRNLAELPASAAHSHQHVVKKGLAALSLPEHQRWRRSLNSGQGYQACGWIFDADTVFDTIGILEWARLAPVERVKGVLRIPEGLVRINRQGDDLHIETQNVAPPDSRIELISSSEADWNALQSALLKLRLATTA
B13: msrA (Clostridium oremlandii, UniProt A8MI53); chain MDTNQKLSIAVFALGUFWGPDAQFGSIKGVVSTRVGYAGGTTNNPSYYNLGDHSESIEIQYDANVITYGELLNIFWNLHNPVYETTNRQYMSRIFYLDDGQKSEALEMKRQIEAANGEKIYTEIVPLENFYLAEGYHQKYYLQNTTKLYQTLKAIYGGFGNLVRSTLAARMNGYIAGNLSIASLKEEMDLVELPEDQYEKVLSIVEEIK

Substance | substrate | medium | pH | temperature | setting | with | Km [µM]
BshA (Bacillus subtilis, UniProt P42982) | O=C(O)C[C@H](O)C(=O)O |  | pH 7.5 | 21 °C |  | UDP-GlcNAc 0–4 mM | 54
B1 (FMO3 N61S) | CN1CCC[C@H]1c1cccnc1 | HEK293 microsomes |  | 37 °C | not purified | NADPH regenerating system | 4700
B2 (cyc1 F95M) | CC(C)=CCC/C(C)=C/CC/C(C)=C/CO[P@@](=O)(O)OP(=O)(O)O |  | pH 6.5 | 30 °C |  | MgCl2 10 mM | 0.275
protein (Scutellaria baicalensis, UniProt A0A146AUJ9) | O=C1C[C@@H](c2ccccc2)Oc2cc(O)cc(O)c21 |  | pH 7.9 | 28 °C | apparent, not purified | NADPH | 0.46
B3 (At3g26430) | CCCC(=O)Oc1ccc([N+](=O)[O-])cc1 | E. coli soluble lysate | pH 7.5 | 30 °C | not purified |  | 2000
B4 (Mgst1 unactivated) | NC(=O)c1ccc(Cl)c([N+](=O)[O-])c1 |  | pH 6.5 | 5 °C | potassium phosphate 0.1 M, unactivated enzyme | GSH 5 mM | 34
B5 (PRODH2 157-515) | O=C(O)[C@@H]1C[C@@H](O)CN1 |  | pH 7.5 | 25 °C |  | O2 | 28000
B6 (enzyme) | OCCCCCO |  | pH 7.3 | 37 °C |  |  | 3500
octaprenyl-diphosphate synthase (Bacteroides fragilis, UniProt Q5LIZ3) | C=C(C)CCO[P@@](=O)(O)OP(=O)(O)O |  | pH 7.6 | 37 °C |  | FPP; Triton X-100.1%; MgCl2 10 mM | 11
B7 (ASRGL1) | NCCCC[C@H](NC(=O)C[C@H](N)C(=O)O)C(=O)O |  | pH 7.4 | 37 °C | NaCl 100 mM |  | 5200
B8 (WlbA) | CC(=O)N[C@H]1[C@@H](OP(=O)(O)OP(=O)(O)OC[C@H]2O[C@@H](n3ccc(=O)[nH]c3=O)[C@H](O)[C@@H]2O)O[C@H](C(=O)O)[C@@H](O)[C@@H]1O |  | pH 8.5 | 25 °C |  | enzyme-bound NAD(H) | 430
B9 (MsrP) | C[S@+]([O-])CC[C@H](N)C(=O)O |  | pH 7 | 30 °C |  | benzyl viologen 0.4 mM | 8000
B10 (GTPBP3 E459K) | Nc1nc2c(ncn2[C@@H]2O[C@H](COP(=O)(O)OP(=O)(O)OP(=O)(O)O)[C@@H](O)[C@H]2O)c(=O)[nH]1 |  | pH 8 | 37 °C | KCl 300 mM |  | 12
B11 (YME1) | Nc1ncnc2c1ncn2[C@@H]1O[C@H](COP(=O)(O)OP(=O)(O)OP(=O)(O)O)[C@@H](O)[C@H]1O |  | pH 8 | 30 °C |  |  | 116
B12 (YeiR) | Nc1nc2c(ncn2[C@@H]2O[C@H](COP(=O)(O)OP(=O)(O)OP(=O)(O)O)[C@@H](O)[C@H]2O)c(=O)[nH]1 |  | pH 7.5 | 37 °C | apo, anaerobic |  | 220
butyrylcholinesterase (Sus scrofa, UniProt A0A4X1VEU5) | CC(=O)SCC[N+](C)(C)C |  | pH 8 | 22 °C |  |  | 370
α-amino ester hydrolase (Xanthomonas campestris, UniProt Q8P8K4) | COC(=O)[C@H](N)c1ccccc1 |  | pH 7 | 25 °C | phosphate 100 mM |  | 3700
B13 (msrA) | CN(C)c1ccc(N=Nc2ccc(S(=O)(=O)N[C@@H](CC[S@+](C)[O-])C(=O)O)cc2)cc1 |  | pH 7.5 | 37 °C | 50 mM NaCl, Km above tested range | 20 mM DTT reductant | 10200

Some of these lines once more:
Substance | substrate | medium | pH | temperature | setting | with | Km [µM]
α-amino ester hydrolase (Xanthomonas campestris, UniProt Q8P8K4) | COC(=O)[C@H](N)c1ccccc1 |  | pH 7 | 25 °C | phosphate 100 mM |  | 3700
B13 (msrA) | CN(C)c1ccc(N=Nc2ccc(S(=O)(=O)N[C@@H](CC[S@+](C)[O-])C(=O)O)cc2)cc1 |  | pH 7.5 | 37 °C | 50 mM NaCl, Km above tested range | 20 mM DTT reductant | 10200
